Results gathered from unrelated publications.
Each line is one published result; not all experiments were run side by side. ± gives the spread as reported.
PLG: Plasminogen (PLG, Homo sapiens, UniProt P00747)
Sequence of UniProt P00747 (whole entry, looked up): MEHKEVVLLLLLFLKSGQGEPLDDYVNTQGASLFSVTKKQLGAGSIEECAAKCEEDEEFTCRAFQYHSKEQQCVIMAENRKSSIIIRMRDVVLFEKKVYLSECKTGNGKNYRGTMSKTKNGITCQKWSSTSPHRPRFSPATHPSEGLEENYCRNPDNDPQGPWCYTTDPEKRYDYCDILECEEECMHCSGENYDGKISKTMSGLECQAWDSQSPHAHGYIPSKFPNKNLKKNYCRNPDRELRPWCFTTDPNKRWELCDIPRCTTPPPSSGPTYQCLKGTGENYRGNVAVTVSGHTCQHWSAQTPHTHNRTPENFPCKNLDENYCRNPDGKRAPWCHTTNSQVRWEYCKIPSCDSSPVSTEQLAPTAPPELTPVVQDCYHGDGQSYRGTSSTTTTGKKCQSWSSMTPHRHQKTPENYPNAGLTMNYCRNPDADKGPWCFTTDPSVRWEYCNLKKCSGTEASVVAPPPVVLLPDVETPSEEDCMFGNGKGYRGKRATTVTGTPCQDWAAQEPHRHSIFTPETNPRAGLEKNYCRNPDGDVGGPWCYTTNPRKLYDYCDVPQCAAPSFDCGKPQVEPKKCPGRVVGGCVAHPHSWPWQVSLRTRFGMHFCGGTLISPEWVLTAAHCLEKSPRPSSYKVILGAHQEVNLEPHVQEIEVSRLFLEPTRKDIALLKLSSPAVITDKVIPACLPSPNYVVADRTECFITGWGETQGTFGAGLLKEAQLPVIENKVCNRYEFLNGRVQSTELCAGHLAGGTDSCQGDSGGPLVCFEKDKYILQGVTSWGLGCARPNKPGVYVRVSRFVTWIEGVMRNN
Adhesin FmlH lectin domain: Adhesin FmlH, lectin domain (Escherichia coli, UniProt Q1RBS0)
USP51: Ubiquitin carboxyl-terminal hydrolase 51 (USP51, Homo sapiens, UniProt Q70EK9)
Sequence of UniProt Q70EK9 (whole entry, looked up): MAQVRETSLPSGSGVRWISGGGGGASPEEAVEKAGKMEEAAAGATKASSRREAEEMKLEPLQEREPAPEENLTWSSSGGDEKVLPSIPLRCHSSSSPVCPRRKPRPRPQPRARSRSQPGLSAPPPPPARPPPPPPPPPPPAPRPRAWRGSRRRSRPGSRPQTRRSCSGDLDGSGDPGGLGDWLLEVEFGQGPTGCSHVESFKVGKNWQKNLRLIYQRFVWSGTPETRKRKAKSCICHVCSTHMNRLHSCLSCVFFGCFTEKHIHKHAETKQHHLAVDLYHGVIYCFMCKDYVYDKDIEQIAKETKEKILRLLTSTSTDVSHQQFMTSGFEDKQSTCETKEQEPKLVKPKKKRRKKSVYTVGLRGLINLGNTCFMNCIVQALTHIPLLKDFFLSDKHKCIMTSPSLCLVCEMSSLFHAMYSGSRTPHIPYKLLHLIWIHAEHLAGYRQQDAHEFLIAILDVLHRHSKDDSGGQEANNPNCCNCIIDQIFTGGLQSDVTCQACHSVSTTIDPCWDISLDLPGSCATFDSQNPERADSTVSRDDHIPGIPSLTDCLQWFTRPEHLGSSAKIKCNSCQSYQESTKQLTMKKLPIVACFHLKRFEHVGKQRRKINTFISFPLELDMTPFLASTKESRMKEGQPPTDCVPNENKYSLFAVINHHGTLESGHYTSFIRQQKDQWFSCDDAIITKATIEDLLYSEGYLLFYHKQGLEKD
MAPK8: Mitogen-activated protein kinase 8 (MAPK8, Homo sapiens, UniProt P45983)
Sequence of UniProt P45983 (whole entry, looked up): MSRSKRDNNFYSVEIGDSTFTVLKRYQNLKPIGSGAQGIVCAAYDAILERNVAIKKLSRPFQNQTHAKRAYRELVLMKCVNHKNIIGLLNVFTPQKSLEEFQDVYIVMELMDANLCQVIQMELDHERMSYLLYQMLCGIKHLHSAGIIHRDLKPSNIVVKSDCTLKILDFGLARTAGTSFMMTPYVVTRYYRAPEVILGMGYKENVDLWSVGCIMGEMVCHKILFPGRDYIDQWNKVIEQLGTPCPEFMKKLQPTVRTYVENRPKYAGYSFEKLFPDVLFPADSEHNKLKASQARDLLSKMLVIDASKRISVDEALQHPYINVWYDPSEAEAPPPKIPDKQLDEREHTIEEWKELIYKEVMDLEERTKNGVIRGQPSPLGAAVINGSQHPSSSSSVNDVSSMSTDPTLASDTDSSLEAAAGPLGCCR
PTGS1: Prostaglandin G/H synthase 1 (PTGS1, Ovis aries, UniProt P05979)
Sequence of UniProt P05979 (whole entry, looked up): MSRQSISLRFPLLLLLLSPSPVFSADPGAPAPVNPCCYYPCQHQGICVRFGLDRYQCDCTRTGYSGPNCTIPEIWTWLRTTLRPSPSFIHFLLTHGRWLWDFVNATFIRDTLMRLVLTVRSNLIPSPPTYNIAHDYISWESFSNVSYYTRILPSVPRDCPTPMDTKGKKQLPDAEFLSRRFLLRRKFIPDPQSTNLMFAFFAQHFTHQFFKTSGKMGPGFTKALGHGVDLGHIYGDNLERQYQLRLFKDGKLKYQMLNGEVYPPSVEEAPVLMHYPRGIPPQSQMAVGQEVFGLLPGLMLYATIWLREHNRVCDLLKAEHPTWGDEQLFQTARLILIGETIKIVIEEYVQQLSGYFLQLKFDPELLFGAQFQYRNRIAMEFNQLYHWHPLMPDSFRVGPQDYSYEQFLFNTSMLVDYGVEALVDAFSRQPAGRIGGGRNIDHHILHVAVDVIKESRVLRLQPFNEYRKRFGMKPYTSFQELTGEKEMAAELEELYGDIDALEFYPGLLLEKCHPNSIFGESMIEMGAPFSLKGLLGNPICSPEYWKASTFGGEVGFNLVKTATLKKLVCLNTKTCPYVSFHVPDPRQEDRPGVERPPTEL
MAL12: Alpha-glucosidase MAL12 (MAL12, Saccharomyces cerevisiae S288c, UniProt P53341)
Sequence of UniProt P53341 (whole entry, looked up): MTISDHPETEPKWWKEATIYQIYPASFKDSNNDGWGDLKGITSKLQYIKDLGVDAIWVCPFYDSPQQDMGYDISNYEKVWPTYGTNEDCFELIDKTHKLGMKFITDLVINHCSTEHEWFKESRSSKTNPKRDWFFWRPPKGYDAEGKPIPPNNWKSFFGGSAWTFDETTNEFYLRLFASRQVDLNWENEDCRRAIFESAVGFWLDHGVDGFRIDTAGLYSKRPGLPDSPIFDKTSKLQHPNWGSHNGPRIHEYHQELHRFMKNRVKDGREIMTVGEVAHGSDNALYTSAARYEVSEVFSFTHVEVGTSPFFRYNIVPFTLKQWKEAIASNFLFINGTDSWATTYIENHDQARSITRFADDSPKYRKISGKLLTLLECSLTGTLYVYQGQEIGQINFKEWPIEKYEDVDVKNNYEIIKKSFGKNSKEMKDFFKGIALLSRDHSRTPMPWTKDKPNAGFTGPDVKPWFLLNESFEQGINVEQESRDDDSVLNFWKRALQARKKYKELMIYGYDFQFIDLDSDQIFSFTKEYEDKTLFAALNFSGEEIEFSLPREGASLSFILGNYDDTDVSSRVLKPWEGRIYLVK
HTR1A: 5-hydroxytryptamine receptor 1A (HTR1A, Homo sapiens, UniProt P08908)
Sequence of UniProt P08908 (whole entry, looked up): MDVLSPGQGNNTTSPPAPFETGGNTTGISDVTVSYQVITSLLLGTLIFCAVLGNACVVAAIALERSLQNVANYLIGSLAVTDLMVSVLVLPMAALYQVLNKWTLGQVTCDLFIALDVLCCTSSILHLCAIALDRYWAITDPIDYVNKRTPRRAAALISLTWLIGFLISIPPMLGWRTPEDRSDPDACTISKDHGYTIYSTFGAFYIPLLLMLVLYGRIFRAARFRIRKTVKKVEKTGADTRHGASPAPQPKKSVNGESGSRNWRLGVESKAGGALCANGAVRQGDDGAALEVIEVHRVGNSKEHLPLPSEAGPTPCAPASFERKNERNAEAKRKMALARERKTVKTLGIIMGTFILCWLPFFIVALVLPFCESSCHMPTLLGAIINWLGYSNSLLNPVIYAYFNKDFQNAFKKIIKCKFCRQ
Sequence of UniProt Q9BT09 (whole entry, looked up): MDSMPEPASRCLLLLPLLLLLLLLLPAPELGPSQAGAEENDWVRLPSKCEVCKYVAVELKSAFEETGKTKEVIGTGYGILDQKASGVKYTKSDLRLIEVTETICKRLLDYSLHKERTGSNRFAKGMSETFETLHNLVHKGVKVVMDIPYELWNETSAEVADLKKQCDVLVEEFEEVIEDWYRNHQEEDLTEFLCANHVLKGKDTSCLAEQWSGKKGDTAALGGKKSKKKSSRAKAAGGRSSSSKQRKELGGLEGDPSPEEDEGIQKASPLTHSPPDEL
Sequence of UniProt O35433 (whole entry, unmodified, looked up): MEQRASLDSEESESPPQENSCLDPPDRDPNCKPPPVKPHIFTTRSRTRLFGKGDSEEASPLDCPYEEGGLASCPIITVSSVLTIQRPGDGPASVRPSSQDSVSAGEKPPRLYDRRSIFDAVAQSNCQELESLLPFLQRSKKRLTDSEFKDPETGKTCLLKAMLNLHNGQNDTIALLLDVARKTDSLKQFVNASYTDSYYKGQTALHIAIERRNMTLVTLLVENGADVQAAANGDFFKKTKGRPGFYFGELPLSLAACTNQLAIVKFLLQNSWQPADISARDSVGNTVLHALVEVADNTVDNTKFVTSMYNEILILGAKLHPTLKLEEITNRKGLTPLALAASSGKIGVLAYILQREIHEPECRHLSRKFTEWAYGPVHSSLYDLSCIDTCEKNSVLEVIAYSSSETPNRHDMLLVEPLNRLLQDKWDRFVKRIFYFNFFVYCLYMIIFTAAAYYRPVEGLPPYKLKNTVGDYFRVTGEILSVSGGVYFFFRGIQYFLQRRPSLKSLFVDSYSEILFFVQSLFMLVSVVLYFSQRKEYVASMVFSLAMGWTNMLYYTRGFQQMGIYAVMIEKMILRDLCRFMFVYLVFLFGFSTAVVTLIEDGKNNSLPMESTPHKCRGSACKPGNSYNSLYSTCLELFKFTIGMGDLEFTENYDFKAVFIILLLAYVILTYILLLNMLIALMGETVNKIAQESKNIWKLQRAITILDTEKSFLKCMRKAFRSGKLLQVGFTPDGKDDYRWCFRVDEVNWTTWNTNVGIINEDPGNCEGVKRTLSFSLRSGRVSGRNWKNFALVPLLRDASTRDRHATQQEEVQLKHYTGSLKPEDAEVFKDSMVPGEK
Sequence of UniProt P46663 (whole entry, looked up): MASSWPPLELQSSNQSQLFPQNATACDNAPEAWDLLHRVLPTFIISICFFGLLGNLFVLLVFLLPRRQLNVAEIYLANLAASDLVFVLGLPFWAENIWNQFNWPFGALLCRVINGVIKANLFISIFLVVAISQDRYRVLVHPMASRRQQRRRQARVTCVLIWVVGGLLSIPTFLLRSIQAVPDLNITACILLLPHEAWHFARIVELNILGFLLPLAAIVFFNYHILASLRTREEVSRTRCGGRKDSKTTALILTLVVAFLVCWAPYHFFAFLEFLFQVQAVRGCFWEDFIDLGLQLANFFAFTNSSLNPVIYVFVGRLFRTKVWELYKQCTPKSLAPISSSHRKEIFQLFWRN

SMILES	tested on	test	test system	setting	scale	quantity	result
CC(C)Cn1c(SCC(=O)N2CCc3ccccc3C2)nc2cc(Cl)ccc2c1=O	ADRA2B (Homo sapiens, UniProt P18089)	ligand displacement, radioligand		10 µM		inhibition	0%
COC1CN([C@H]2CC[C@H]([C@@]3(C)Oc4c(Cl)cc(C(=O)NCc5c(SC)cc(C)[nH]c5=O)c(C)c4O3)CC2)C1		RNA-seq, item: ZNRF3 mouse homolog	mouse, HT-1376 xenograft, whole blood	dose not given	baseline: vehicle	log2 fold change	0.262
C=CCNC(=O)[C@H](CCc1ccccc1)NC(=O)[C@H](CC(=O)NCC(C)(C)C)NC(=O)CCc1ccccc1	PLG	enzyme activity, inhibitor		100 µM		inhibition	-15%
Cc1[nH]nc2c1N=C(c1ccccc1Cl)c1cnc(N3CCOCC3)cc1N2	BDKRB1 (Homo sapiens, UniProt P46663)	cell-free assay		10 µM		inhibition	5%
Cc1ccccc1O[C@@H]1O[C@H](CO)[C@H](O)[C@H](O)[C@H]1O	Adhesin FmlH lectin domain	binding to desialylated mucin, ELISA competition	UPEC UTI89	10 µM, together with: desialylated bovine submaxillary mucin		inhibition	28.2 ± 1.8%
COc1cc(C(=O)Nc2nnc(-c3nc4ccccc4n(C)c3=O)o2)cc(OC)c1OC	USP51	enzyme activity, inhibitor		1 µM		inhibition	8.1 ± 2.7%
CN(C)c1ccc(-n2cc(COC(=O)[C@]3(C)C=C(C(=O)OC(C)(C)C)C(=O)CC3)nn2)cc1	MAPK8	D-peptide binding, inhibitor, FP peptide displacement		0.7812 µM	lower is stronger displacement	fraction bound	0.918
CN(Cc1ccc(/C=C/C(=O)NO)cc1)CC12CC3CC(CC(C3)C1)C2	human D4.4 receptor	antagonist radioligand binding		0.05 µM		inhibition	-4%
OC[C@H]1O[C@@H](SCCc2ccccc2)[C@H](O)[C@@H](O)[C@H]1O	Adhesin FmlH lectin domain	binding to desialylated mucin, ELISA competition	UPEC UTI89	100 µM		inhibition	49.8 ± 2.5%
Cc1ccc(-c2nn(-c3ccc(S(C)(=O)=O)cc3)cc2C=NN=c2[nH]c(-c3ccc([N+](=O)[O-])cc3)cs2)cc1	PTGS1	enzyme activity		0.01 µM		inhibition	3.73%
CC(C)OCCOCc1ccc(OCC(O)CN(N=O)C(C)C)cc1 (stereo not shown)	Escherichia coli	Ames test	WP2 uvrA	15.8 µg/plate, 30 % hamster S9	baseline: solvent control	revertant fold increase	1.2 fold
CS(=O)(=O)c1ccc(-n2cc(C=NN=c3[nH]c(-c4ccc([N+](=O)[O-])cc4)cs3)c(-c3ccc(Br)cc3)n2)cc1	PTGS1	enzyme activity		100 µM		inhibition	87.7%
C=CC(=O)Nc1cccc(Cn2ncc3cnc(Nc4cnn(CCOC)c4)nc32)c1	human KIT	KINOMEscan		100 nM		binding	29%
C/C1=C\CC/C(C)=C/CC(C)(C)/C=C/C1	Trpv1 (Rattus norvegicus, UniProt O35433, S512A/T550A/Y511A)	ion current, inhibitor, outside-out patch clamp		10 µM, triple vanilloid-site mutant, together with: pH 5.5 activation		inhibition	49 ± 3%
CS(=O)(=O)c1ccc(-n2cc(C=NN=c3[nH]c(-c4ccc(Br)cc4)cs3)c(-c3ccc(Br)cc3)n2)cc1	PTGS1	enzyme activity		0.01 µM		inhibition	8.33%
CCCCCC(O)/C=C/C=O (stereo not shown)	Protein canopy homolog 3 (Homo sapiens, UniProt Q9BT09)	competitive isoTOP-ABPP	proteome, soluble, MDA-MB-231	100 µM, 60 min, together with: iodoacetamide probe	baseline: DMSO over compound-treated, higher = stronger cysteine blockade	isoTOP-ABPP competition ratio	1.4
CCOC(=O)c1sc2nc(-c3ccc(O)c(OC)c3)c(NCc3ccc(F)cc3)n2c1C	USP51	enzyme activity, inhibitor		1 µM		inhibition	41.6 ± 12.4%
Cc1nn(-c2cccc(N)c2)c(=O)c2cnc(Nc3ccc(N4CCNCC4)cc3)nc12	AXL (Homo sapiens, UniProt P30530)	kinase activity, inhibitor, SelectScreen kinase profiling				IC50	> 10 µM
COc1cc(C(=O)Nc2ccc3c(c2)C(=O)N(C)C2=NCCN23)cc(OC)c1OC	USP51	enzyme activity, inhibitor		1 µM		inhibition	41.9 ± 12.9%
CN(C)c1ccc(C#CCOC(=O)[C@]2(C)C=C(C(=O)OC(C)(C)C)C(=O)CC2)cc1	MAPK8	D-peptide binding, inhibitor, FP peptide displacement		250 µM	lower is stronger displacement	fraction bound	0.295
C/C=C/C(=O)Nc1ccc2nc(NCCCCCN(C)C)nc(NCCCCCCN(C)C)c2c1	SETD2 (Homo sapiens, UniProt Q9BYW2)	enzyme activity, inhibitor, radiometric		10 µM		inhibition	65%
Cc1ncsc1-c1ccc(C(C)NC(=O)C2CC(O)CN2C(=O)C(NC(=O)CCCCCCCCCCN2CCCC(Nc3ncc(Cl)c(Nc4ccccc4S(=O)(=O)C(C)C)n3)C2)C(C)(C)C)cc1 (stereo not shown)	22Rv1	RNA-seq, item: SPRY1 mRNA		concentration not given	baseline: DMSO	log2 fold change	-1.29
Cc1ccc(CNC(=O)[C@H](CCc2ccccc2)NC(=O)[C@H](CCc2ccccc2)NC(=O)Cc2cccc(Oc3ccccc3)c2)cc1	PLG	enzyme activity, inhibitor		100 µM		inhibition	-12%

SMILES	tested on	test	test system	setting	scale	quantity	result
COc1cc(OC)cc(O[C@@H]2O[C@H](CO)[C@H](O)[C@H](O)[C@H]2O)c1	Adhesin FmlH lectin domain	binding to desialylated mucin, ELISA competition	UPEC UTI89	10 µM, together with: desialylated bovine submaxillary mucin		inhibition	11.7 ± 2.7%
N=C(N)NCCCC(NC(=O)C(CC(=O)NO)Cc1ccc2ccccc2c1)C(=O)NC(Cc1c[nH]c2ccccc12)C(=O)NC(CCC(=O)O)C(N)=O (stereo not shown)	MMP8 (Homo sapiens, UniProt P22894)			1 µM		inhibition	22%
OC[C@H]1O[C@@H](Oc2ccccc2Cl)[C@H](O)[C@@H](O)[C@H]1O	Adhesin FmlH lectin domain	binding to desialylated mucin, ELISA competition	UPEC UTI89	100 µM		inhibition	90.5 ± 0.6%
CCn1cc(-c2cccc(C(F)(F)F)c2)c2sc(C(=N)NC3CCS(=O)(=O)CC3)cc2c1=O	Bromodomain testis-specific protein, BD2 (BRDT, Homo sapiens, UniProt Q58F21)			1 µM		inhibition	-13.4%
Cc1ccc(-c2nn(-c3ccc(S(C)(=O)=O)cc3)cc2C=NN=c2[nH]c(-c3ccc(Br)cc3)cs2)cc1 (mixture of isomers)	PTGS1	enzyme activity		0.01 µM		inhibition	6.49%
O=C(Nc1cccc(C(=O)Nc2ccc(S(=O)(=O)O)c3cc(S(=O)(=O)O)cc(S(=O)(=O)O)c23)c1)Nc1cccc(C(=O)Nc2ccc(S(=O)(=O)O)c3cc(S(=O)(=O)O)cc(S(=O)(=O)O)c23)c1	Genome polyprotein, NS3 helicase domain (Hepatitis C virus genotype 1b, UniProt Q9WMX2)	DNA binding, inhibitor	hepatitis C virus	100 µM, together with: Cy5-dT15 DNA		inhibition	91%
C[Si](C)(C)C[C@@H](CN)CC(=O)O	Interleukin-6 receptor subunit alpha (IL6R, Homo sapiens, UniProt P08887)	binding, radioligand binding		75 µM		inhibition	5%
CC(C)(C)CNC(=O)C[C@H](NC(=O)CCc1ccccc1)C(=O)N[C@@H](Cc1cccnc1)C(=O)NCc1ccccc1Cl	PLG	enzyme activity, inhibitor		100 µM		inhibition	-10%
COc1ccc(C(=O)Nc2c(-c3cccs3)nc3ccccn23)cc1	HTR5A (Homo sapiens, UniProt P47898)	ligand displacement, radioligand		10 µM		inhibition	< 50%
COc1ccccc1O[C@@H]1O[C@H](CO)[C@H](O)[C@H](O)[C@H]1O	Adhesin FmlH lectin domain	binding to desialylated bovine submaxillary mucin, inhibitor, ELISA competition	UPEC UTI89	1 µM		inhibition	10 ± 4.3%
CCOc1ccc(C(=O)Nc2nnc(C3CC(=O)N(c4ccc(SC)cc4)C3)o2)cc1OCC (stereo not shown)	USP51	enzyme activity, inhibitor		1 µM		inhibition	0%
CCOC(=O)CCCCC1NCCc2cc(O)c(O)cc21 (stereo not shown)	MAL12	enzyme activity, inhibitor		100 µM, DMSO solvent, together with: pNPG substrate		inhibition	18.1 ± 2.51%
Nc1ncc(-c2cc(-c3cnn(CC(F)(F)F)c3)ncc2F)nc1C(=O)NC1CNCC(F)C1 (stereo not shown)	CSNK2A2	KINOMEscan		1 µM	baseline: DMSO control	remaining binding	59%
O=C1c2sc(-c3ccc(N4CCC(F)C4)nc3F)nc2CCN1c1cccnc1 (stereo not shown)	HTR1A	ligand displacement, radioligand		1 µM		inhibition	-32%
N#Cc1ccc(O[C@@H]2O[C@H](CO)[C@H](O)[C@H](O)[C@H]2O)cc1	Adhesin FmlH lectin domain	binding to desialylated mucin, ELISA competition	UPEC UTI89	10 µM, together with: desialylated bovine submaxillary mucin		inhibition	19.2 ± 4.8%
CN1CC[C@@H](COc2cnc(C#N)cc2-c2ccn3nc(NC(=O)C4CC4)cc3c2)C1	PDK4 (Homo sapiens, UniProt Q16654)	enzyme activity, inhibitor		1 µM		inhibition	8%
O=C1c2sc(-c3ccc(N4CCC(CO)CC4)nc3F)nc2CCN1c1cccnc1	HRH2 (Homo sapiens, UniProt P25021)	ligand displacement, radioligand		1 µM		inhibition	-4%
COc1ccc(-c2cnn3ccc(Nc4cc(OC)c(OC)c(OC)c4)nc23)cc1OC	crk3, with CYC6 (Leishmania mexicana, UniProt O15851)	IMAP fluorescence polarisation		30 µM, with L. major CYC6		inhibition	72%
COc1cc(-c2nc3ncccn3c2Nc2ccc(C)c(Cl)c2)ccc1O	USP51	enzyme activity, inhibitor		1 µM		inhibition	19.3 ± 4.1%
O=C(CN1CCO[C@@H](COc2cccc(Cl)c2)C1)N1CCc2ccccc21	HTR1A	radioligand binding		concentration not given, together with: [3H]8-OH-DPAT		inhibition	89.3%
COc1cc([C@@H](O)[C@H](O)CO)ccc1O	MAL12	inhibitor		100 µg/mL, 0.4167 h, together with: p-nitrophenyl glucoside substrate		inhibition	35.1 ± 4.16%
OC[C@H]1O[C@@H](Oc2ccc3ccccc3c2)[C@H](O)[C@@H](O)[C@H]1O	Adhesin FmlH lectin domain	binding to desialylated mucin, ELISA competition	UPEC UTI89	100 µM		inhibition	78.8 ± 2.1%
COc1ccc(OC)c(NC(=O)Cn2cnc3nc(N4CCCC4)ncc3c2=O)c1	USP51	enzyme activity, inhibitor		1 µM		inhibition	6.5 ± 1.4%
